Measurements from different studies.
Compare with care: the assays were run in different laboratories.
TDP1: Tyrosyl-DNA phosphodiesterase 1 (TDP1, Homo sapiens, UniProt Q9NUW8)
UniProt Q9NUW8, sequence (whole entry, looked up): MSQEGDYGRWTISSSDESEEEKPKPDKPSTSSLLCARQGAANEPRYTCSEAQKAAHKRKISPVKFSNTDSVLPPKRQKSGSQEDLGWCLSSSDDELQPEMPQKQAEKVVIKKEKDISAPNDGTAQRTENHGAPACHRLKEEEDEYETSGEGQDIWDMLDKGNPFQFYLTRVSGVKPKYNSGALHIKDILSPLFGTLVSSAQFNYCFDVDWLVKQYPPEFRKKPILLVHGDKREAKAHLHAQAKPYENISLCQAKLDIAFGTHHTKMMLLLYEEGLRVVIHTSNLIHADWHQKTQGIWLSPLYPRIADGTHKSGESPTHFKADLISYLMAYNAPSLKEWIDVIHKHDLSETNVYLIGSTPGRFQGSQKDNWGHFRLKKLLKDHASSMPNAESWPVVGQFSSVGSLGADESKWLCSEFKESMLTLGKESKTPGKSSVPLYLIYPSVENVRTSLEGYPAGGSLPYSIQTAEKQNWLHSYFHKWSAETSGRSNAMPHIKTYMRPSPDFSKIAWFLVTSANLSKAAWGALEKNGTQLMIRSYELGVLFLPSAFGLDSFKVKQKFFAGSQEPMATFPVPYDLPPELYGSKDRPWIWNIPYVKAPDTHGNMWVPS

With `O=C(O)c1ccc(Nc2c(-c3ccccc3)nc3ccc(CON=Cc4cnn(Cc5ccccc5Cl)c4)cn23)cc1` the inhibition was 14.6% (TDP1; enzyme activity, inhibitor; 100 µM, unpurified compound).
The clearance of `Cc1cccc(Cn2ncc3c4cc(F)c(CN(C)C)cc4n(C)c3c2=O)n1` is reported as 43.1 mL/min/kg (Sprague-Dawley rat, plasma; intravenous, 5 mg/kg).
With `O=c1c(-c2ccc(Cl)c(CN3CCOCC3)c2)coc2cc(O)ccc12` the clearance was 56.6 mL/min/kg (male Sprague-Dawley rat, plasma; intravenous, 2 mg/kg).
With `C/C(N)=N/C(=N\S(=O)(=O)c1ccc(C(F)(F)F)cc1)N1C[C@H](c2ccccc2)C(c2ccc(Cl)cc2)=N1` the clearance was 9.1 mL/min/kg (male Sprague-Dawley rat, plasma; intravenous, 3 mg/kg).
For `N#Cc1ccnc(N2C(=O)CC[C@H]2C(=O)N(c2cncc(F)c2)[C@H](C(=O)NC2CC(F)(F)C2)c2ccccc2Cl)c1`, the clearance was 3.33 mL/min/kg (Sprague-Dawley rat, plasma; intravenous, 1 mg/kg).
For `C=CCn1cc(C=NOCc2ccc(-c3nc4cc(-c5ccccc5)ccn4c3Nc3ccc(C(=O)O)cc3)cc2)c2ccccc21` (mixture of isomers), the inhibition was 24.3% (TDP1; enzyme activity, inhibitor; 100 µM, unpurified compound).
`C[C@@H](CO)NC(=O)c1cc(-c2ccc(Cl)cc2)nn(-c2cnn(C)c2)c1=O` has a clearance of 3 mL/min/kg (male Wistar rat, blood; intravenous).
For `C=C(NC(=O)c1csc(-c2nc3c(cc2O)-c2nc(cs2)C(=O)NC(C(C)O)C(=O)NC(=C(C)OC)c2nc(cs2)C(=O)NC2c4nc(cs4)C(=O)NC(COC(=O)c4c5c6c(cccc6n4O)COC(=O)C(OC4CC(C)(O)C(N(C)C)C(C)O4)C2OC5)c2nc-3cs2)n1)C(N)=O` (centres unmarked), the clearance was 48 mL/min/kg (Sprague-Dawley rat, plasma; intravenous, infusion).
`CCCN(C)c1cc(C(F)(F)F)nc(SCCC(=O)NCc2ccco2)n1` gave a CL/F of 0.144 mL/min/kg (male Wistar rat, plasma; intraperitoneal, 25 mg/kg, single dose).
With `Cc1[nH]nc2c1N=C(c1ccccc1Cl)c1cnc(N3CCOCC3)cc1N2` the clearance was 16.5 mL/min/kg (male Sprague-Dawley rat, plasma; intravenous, 1 mg/kg).
`CCC1(CC)CC(=O)N(C2c3cc(C(=O)NC4c5ccccc5CC4O)ccc3OC2(C)COC)C(=N)N1` (centres unmarked) gave a clearance of 60.4 mL/min/kg (male Wistar rat, plasma; intravenous).
With `CCC(CC)n1c(Cc2ccco2)nc2cc(C(=O)N[C@@H](CC(=O)O)c3ccccc3)ccc21` the clearance was 20.8 mL/min/kg (male Sprague-Dawley rat, plasma; intravenous, 1 mg/kg).
With `O=C(C1CCN(c2nnnn2-c2ccccc2)CC1)N1CCCc2ccccc21` the clearance was 32.7 mL/min/kg (male Sprague-Dawley rat, plasma; intravenous, 1 mg/kg).
The clearance of `CN1CCC[C@@H]1C(=O)N[C@@H](Cc1ccc(-c2ccccc2)cc1)B(O)O` is reported as 20 mL/min/kg (male Sprague-Dawley rat, plasma; intravenous, 1 mg/kg).

Some of these lines once more:
With `O=C(C1CCN(c2nnnn2-c2ccccc2)CC1)N1CCCc2ccccc21` the clearance was 32.7 mL/min/kg (male Sprague-Dawley rat, plasma; intravenous, 1 mg/kg).
The clearance of `CN1CCC[C@@H]1C(=O)N[C@@H](Cc1ccc(-c2ccccc2)cc1)B(O)O` is reported as 20 mL/min/kg (male Sprague-Dawley rat, plasma; intravenous, 1 mg/kg).
